Results pooled from the literature.
Compare with care: the assays were run in different laboratories. ± gives the spread as reported.
NOX1: NADPH oxidase 1 (NOX1, Homo sapiens, UniProt Q9Y5S8)
Salicylate synthetase, Irp9: Salicylate synthetase, Irp9 (Yersinia enterocolitica, UniProt Q9X9I8)
NOX4: NADPH oxidase 4 (NOX4, Homo sapiens, UniProt Q9NPH5)
Neuronal acetylcholine receptor; alpha3/beta2: Neuronal acetylcholine receptor; alpha3/beta2 (Rattus norvegicus, UniProt P04757+P12390)
ache: Acetylcholinesterase (ache, Electrophorus electricus, UniProt O42275)
Chrna3/Chrnb2/Chrna6 with beta3 subunit: Chrna3/Chrnb2/Chrna6, with beta3 subunit (Rattus norvegicus, UniProt P04757+P12390+P43143)

Sequences of proteins named here, by UniProt entry; tags and fusion partners are left off. Residues count along the entry.
UniProt Q9Y5S8, whole entry: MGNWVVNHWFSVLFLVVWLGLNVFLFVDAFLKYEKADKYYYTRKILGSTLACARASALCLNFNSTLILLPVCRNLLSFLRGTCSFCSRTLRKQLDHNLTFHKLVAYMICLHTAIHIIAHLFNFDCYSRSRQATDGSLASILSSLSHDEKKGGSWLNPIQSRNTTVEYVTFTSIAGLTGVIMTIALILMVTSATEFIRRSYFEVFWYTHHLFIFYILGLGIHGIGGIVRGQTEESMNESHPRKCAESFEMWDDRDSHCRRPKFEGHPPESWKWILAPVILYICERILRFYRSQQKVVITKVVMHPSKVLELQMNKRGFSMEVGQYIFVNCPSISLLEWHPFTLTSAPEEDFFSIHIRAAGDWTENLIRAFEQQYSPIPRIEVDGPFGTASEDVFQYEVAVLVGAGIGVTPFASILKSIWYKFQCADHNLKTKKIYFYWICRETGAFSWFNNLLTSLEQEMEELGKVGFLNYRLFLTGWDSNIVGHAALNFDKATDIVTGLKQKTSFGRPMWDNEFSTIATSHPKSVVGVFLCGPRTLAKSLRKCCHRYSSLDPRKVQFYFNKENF
UniProt Q9X9I8, 1-434: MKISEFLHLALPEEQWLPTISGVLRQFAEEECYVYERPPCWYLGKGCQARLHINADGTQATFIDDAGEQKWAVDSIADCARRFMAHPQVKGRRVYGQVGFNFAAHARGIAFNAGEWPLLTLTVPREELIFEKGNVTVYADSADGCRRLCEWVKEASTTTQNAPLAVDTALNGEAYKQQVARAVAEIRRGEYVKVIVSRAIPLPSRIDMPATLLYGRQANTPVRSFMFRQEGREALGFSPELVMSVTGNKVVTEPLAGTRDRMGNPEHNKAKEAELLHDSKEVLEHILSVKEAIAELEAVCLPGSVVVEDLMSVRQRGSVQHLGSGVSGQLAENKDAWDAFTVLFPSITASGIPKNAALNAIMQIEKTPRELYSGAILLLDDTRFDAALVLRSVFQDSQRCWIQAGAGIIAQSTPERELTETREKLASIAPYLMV
UniProt Q9NPH5, whole entry: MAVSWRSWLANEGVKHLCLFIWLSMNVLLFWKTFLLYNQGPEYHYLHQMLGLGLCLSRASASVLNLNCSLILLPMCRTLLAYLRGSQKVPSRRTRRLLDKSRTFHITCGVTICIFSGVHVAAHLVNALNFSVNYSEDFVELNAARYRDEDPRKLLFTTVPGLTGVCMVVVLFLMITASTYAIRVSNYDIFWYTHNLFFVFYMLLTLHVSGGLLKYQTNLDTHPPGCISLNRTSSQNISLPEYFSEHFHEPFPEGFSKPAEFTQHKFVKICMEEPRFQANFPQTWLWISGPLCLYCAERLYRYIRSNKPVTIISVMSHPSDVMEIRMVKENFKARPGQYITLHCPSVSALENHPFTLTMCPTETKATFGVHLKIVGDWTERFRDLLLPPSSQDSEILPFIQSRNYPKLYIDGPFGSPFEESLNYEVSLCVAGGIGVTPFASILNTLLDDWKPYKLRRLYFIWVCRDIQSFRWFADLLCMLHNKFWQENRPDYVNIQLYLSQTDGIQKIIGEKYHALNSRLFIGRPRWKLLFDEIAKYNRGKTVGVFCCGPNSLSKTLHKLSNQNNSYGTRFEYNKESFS
UniProt P04757, 26-499 limits assumed: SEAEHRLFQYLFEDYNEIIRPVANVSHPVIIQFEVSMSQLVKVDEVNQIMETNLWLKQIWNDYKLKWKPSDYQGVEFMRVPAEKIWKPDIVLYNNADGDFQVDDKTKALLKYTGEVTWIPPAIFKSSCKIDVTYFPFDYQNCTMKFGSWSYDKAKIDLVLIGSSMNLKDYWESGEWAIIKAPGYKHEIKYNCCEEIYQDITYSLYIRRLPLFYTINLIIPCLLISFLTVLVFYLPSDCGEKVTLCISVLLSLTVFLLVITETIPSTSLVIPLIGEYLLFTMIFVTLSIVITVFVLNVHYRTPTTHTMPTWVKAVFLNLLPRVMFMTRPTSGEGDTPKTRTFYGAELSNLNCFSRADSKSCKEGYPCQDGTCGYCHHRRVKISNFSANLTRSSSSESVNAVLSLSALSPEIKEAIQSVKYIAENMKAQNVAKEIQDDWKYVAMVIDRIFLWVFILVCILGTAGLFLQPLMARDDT
UniProt P04757, whole entry, looked up: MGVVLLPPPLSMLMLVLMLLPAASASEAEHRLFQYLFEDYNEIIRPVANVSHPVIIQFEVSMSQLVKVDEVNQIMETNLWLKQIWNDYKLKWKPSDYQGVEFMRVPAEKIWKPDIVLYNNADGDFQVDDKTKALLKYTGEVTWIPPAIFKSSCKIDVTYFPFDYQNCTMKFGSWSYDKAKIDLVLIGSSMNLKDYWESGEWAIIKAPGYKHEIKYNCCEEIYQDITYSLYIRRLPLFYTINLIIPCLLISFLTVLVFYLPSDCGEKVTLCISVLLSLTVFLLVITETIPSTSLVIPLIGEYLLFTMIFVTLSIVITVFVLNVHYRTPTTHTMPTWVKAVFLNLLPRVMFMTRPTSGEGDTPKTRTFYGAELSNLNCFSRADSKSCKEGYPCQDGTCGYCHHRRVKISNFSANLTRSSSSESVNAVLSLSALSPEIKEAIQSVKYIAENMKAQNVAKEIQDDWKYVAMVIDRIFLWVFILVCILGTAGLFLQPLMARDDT
UniProt P12390, 25-500 limits assumed: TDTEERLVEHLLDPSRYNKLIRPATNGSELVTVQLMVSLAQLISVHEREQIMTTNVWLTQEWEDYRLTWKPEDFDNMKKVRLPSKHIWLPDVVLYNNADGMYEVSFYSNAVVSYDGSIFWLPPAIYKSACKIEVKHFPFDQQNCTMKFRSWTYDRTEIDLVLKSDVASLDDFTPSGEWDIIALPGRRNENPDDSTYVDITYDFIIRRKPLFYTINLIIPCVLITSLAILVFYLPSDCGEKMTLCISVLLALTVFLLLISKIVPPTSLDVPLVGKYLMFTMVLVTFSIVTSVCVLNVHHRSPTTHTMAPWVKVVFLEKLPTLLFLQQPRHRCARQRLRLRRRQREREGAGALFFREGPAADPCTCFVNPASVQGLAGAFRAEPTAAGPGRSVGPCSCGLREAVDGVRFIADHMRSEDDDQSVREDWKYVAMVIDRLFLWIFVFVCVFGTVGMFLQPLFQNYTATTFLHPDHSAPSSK
UniProt P12390, whole entry, looked up: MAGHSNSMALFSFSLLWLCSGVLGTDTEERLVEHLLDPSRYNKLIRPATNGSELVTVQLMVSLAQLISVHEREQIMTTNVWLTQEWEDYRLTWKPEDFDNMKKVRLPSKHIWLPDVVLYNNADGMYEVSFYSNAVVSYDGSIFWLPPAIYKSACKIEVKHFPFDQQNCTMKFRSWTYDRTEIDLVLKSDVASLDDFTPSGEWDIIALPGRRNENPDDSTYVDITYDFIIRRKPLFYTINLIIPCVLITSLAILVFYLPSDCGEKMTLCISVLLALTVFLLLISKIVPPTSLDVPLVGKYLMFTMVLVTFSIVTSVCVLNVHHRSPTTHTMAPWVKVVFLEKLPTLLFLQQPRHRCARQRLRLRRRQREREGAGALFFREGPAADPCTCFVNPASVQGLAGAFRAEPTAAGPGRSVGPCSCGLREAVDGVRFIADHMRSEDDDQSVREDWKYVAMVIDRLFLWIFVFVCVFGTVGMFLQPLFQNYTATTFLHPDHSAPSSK
UniProt P43143, whole entry M241L/F253L/V303I/V320I/I327V/A333T/K339T, looked up: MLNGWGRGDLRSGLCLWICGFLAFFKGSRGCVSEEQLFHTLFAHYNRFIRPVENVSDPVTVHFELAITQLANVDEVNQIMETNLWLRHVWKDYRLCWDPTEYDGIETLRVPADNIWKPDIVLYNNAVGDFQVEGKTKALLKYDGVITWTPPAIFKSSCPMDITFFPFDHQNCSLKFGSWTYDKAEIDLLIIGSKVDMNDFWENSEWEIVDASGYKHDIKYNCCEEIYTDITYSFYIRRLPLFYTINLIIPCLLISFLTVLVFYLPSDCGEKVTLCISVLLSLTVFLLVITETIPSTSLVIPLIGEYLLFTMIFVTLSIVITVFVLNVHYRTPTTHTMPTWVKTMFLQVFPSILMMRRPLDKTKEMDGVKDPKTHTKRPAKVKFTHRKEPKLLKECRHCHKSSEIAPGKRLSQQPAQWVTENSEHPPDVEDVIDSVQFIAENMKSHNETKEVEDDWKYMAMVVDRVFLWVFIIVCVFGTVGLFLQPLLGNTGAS
UniProt Q51507, whole entry: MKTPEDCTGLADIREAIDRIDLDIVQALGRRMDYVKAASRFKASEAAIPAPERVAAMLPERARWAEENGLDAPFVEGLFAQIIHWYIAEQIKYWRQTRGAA
UniProt Q869C3, whole entry, looked up: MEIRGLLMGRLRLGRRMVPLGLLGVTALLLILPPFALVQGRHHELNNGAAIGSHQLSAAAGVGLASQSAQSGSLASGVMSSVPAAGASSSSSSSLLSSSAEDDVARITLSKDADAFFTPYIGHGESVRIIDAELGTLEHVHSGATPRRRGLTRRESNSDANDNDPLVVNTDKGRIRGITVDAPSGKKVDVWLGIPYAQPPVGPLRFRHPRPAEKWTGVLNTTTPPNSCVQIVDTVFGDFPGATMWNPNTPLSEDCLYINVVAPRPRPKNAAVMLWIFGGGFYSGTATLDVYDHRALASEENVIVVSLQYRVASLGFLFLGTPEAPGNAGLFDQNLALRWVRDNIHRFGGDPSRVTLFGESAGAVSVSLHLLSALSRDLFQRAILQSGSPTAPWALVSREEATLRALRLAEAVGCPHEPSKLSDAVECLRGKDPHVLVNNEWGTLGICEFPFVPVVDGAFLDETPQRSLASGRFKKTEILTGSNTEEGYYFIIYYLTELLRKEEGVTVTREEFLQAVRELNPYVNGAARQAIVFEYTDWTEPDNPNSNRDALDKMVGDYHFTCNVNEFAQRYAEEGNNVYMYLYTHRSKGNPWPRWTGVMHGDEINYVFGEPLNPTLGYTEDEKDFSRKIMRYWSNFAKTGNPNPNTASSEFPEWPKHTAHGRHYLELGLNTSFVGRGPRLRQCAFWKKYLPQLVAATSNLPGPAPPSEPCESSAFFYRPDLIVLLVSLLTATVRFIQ
UniProt G4NFI3, 1-514: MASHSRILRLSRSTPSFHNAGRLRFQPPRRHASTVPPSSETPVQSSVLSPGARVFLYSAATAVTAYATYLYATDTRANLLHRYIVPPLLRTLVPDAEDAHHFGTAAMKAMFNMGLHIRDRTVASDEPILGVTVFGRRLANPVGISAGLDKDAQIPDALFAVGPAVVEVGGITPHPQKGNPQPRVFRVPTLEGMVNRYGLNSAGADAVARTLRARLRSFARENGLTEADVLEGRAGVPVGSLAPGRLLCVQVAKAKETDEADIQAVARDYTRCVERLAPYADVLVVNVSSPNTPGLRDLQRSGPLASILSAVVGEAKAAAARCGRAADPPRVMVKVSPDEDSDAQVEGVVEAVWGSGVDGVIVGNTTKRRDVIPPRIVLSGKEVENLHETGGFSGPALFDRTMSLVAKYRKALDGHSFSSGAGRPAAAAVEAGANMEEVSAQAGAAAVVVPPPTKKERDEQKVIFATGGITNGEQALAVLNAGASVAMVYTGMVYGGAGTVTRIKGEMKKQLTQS
UniProt P22303, whole entry, looked up: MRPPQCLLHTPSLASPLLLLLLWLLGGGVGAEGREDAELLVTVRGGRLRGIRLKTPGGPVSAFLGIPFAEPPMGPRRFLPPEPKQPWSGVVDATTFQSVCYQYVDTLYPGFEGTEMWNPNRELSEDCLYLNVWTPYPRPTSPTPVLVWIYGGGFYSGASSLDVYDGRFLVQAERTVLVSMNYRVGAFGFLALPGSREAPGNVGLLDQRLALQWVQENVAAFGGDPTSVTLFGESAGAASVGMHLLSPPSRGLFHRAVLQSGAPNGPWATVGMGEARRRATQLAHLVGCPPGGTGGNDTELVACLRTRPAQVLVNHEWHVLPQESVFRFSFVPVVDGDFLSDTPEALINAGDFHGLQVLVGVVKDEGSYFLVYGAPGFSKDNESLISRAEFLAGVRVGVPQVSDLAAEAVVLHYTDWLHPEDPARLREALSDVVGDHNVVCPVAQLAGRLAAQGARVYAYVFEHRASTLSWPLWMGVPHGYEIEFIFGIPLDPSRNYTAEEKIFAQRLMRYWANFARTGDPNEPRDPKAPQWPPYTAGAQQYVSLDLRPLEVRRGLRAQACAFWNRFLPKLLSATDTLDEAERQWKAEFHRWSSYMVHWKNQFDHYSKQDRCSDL
UniProt Q9GZZ6, 25-450 limits assumed: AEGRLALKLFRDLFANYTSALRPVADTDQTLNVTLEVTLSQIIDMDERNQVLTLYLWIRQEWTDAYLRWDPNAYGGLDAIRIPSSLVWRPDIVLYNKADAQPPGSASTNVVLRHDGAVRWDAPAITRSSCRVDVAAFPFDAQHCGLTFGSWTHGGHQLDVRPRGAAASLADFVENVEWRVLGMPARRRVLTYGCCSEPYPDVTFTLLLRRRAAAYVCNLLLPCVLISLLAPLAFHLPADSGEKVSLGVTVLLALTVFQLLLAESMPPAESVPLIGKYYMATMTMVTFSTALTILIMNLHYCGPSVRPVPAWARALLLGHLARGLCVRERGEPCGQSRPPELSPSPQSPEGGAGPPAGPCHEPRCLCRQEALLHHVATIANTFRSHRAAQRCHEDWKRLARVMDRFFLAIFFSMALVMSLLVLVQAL

C=C(C)[C@@H]1[C@H]2OC(=O)[C@@H]1[C@]1(O)C[C@H]3O[C@]34C(=O)O[C@H]2[C@]14C — IC50 (GABRA1/GABRG2/Gabrb2 (Homo sapiens, UniProt P14867+P18507+P63138); chloride current, inhibitor, whole-cell voltage clamp; L929; 3 min preincubation, with: GABA at EC90): 7980 nM
C[C@H]1[C@H](F)C[C@@H](C(=O)NCc2cc(-c3cnc(C(F)(F)F)nc3)ncc2C(F)(F)F)N1S(=O)(=O)c1ccc(F)cc1 — IC50 (Trpa1 (Mus musculus, UniProt Q8BLA8); calcium influx, antagonist, FlexStation calcium; HEK-293T transfected; with: CS gas at EC50): 70 nM
Cc1cccc2oc(Sc3ncnc4c3nnn4Cc3ccccc3)nc12 — IC50 (NOX1; enzyme activity, inhibitor, Amplex Red; cell-free membranes): > 100000 nM
CCN1CCN(Cc2ccc(NC(=O)c3ccc(C)c(/C=C/c4cnc5[nH]ccc5c4OC)c3)cc2C(F)(F)F)CC1 — log2 fold change (NLK (Homo sapiens, UniProt Q9UBE8); inhibitor; 5 µM; reference: no inhibitor): 0.289
COC(=O)Oc1c([N+](=O)[O-])cc2oc(=O)sc2c1[N+](=O)[O-] — IC50 (Salicylate synthetase, Irp9; salicylate production, inhibitor; pH 7.5, 25 °C, with: chorismate 2 µM): 25000 ± 3000 nM
Clc1ccc2nc(Sc3ncnc4c3nnn4Cc3ccccc3)oc2c1 — IC50 (NOX4; enzyme activity, inhibitor, Amplex Red; cell-free membranes): > 100000 nM
O=[N+]([O-])c1cc(S(=O)(=O)c2cc([N+](=O)[O-])c(O)c([N+](=O)[O-])c2)cc([N+](=O)[O-])c1O — IC50 (pchB (Pseudomonas aeruginosa, UniProt Q51507); pyruvate production, inhibitor, absorbance; 25 °C, with: isochorismate 10 µM): 70 ± 10 nM
FC(F)(F)c1ccc2nc(Sc3ncnc4c3nnn4Cc3ccccc3)oc2c1 — IC50 (NOX1; enzyme activity, inhibitor, Amplex Red; cell-free membranes): 21000 ± 1000 nM
CCCC[C@@H]1NC(=O)[C@H](CO)NC(=O)[C@@H]2CSSC[C@H](NC(=O)CN)C(=O)N[C@@H](CSSC[C@@H](C(N)=O)NC(=O)[C@H](CC(C)C)NC(=O)[C@H](CCC(=O)O)NC(=O)[C@@H]3CCCN3C(=O)[C@H](Cc3c[nH]cn3)NC(=O)[C@H](CC(N)=O)NC1=O)C(=O)N[C@@H](CO)C(=O)N[C@@H](Cc1c[nH]cn1)C(=O)N1CCC[C@H]1C(=O)N[C@@H](C)C(=O)N2 — IC50 (Neuronal acetylcholine receptor; alpha3/beta2; ion current, antagonist, two-electrode voltage clamp; Xenopus laevis oocytes; with: 100 µM acetylcholine): 9.29 nM
COC(=O)Oc1c(Cl)cc2oc(=O)sc2c1[N+](=O)[O-] — IC50 (Salicylate synthetase, Irp9; pyruvate production, inhibitor; 25 °C, with: chorismate 10 µM): > 160000 nM
CC(C)Cc1ccc(C(C)C(=O)OCc2ccc(OC(=O)OCCC(C)(C)C)cc2)cc1 (centres unmarked) — IC50 (ache; enzyme activity, inhibitor, Ellman): 1930 ± 640 nM
CC(C)C[C@@H]1NC(=O)[C@H](CCC(=O)O)NC(=O)[C@@H]2CCCN2C(=O)[C@H](Cc2c[nH]cn2)NC(=O)[C@H](CCCCC(=O)O)NC(=O)[C@H](CC(C)C)NC(=O)[C@H](Cc2c[nH]cn2)NC(=O)[C@@H]2CSSC[C@H](NC(=O)CN)C(=O)N[C@@H](CSSC[C@@H](C(N)=O)NC1=O)C(=O)N[C@@H](CO)C(=O)N[C@@H](Cc1c[nH]cn1)C(=O)N1CCC[C@H]1C(=O)N[C@@H](C)C(=O)N2 — IC50 (Neuronal acetylcholine receptor; alpha3/beta2; ion current, antagonist, two-electrode voltage clamp; Xenopus laevis oocytes; with: 100 µM acetylcholine): 0.38 nM
C[C@@H](Oc1cc[n+]([O-])c2ccccc12)c1cn(-c2ccc(Cl)cc2)nn1 — IC50 (guaB (Vibrio cholerae, UniProt Q9KTW3); enzyme activity, inhibitor; with: 1 mM IMP): > 5000 nM
Cc1cccc2nc(Sc3ncnc4c3nnn4Cc3ccccc3)oc12 — IC50 (NOX4; enzyme activity, inhibitor, Amplex Red; cell-free membranes): > 100000 nM
O=C(O)c1cccc(S(=O)(=O)Nc2ccccc2C(=O)O)c1 — IC50 (Salicylate synthetase, Irp9; pyruvate production, inhibitor; 25 °C, with: chorismate 10 µM): > 160000 nM
COc1ccc2c(c1)c(CC(=O)OCCC(C)(C)C)c(C)n2C(=O)c1ccc(Cl)cc1 — IC50 (ache; enzyme activity, inhibitor, Ellman): 9750 ± 890 nM
O=C1N[C@@H]2C(=C[C@H](O)[C@@H](O)[C@H]2O)c2cc3c(c(O)c21)OCO3 — IC50 (EGFR (Homo sapiens, UniProt P00533, T790M/L858R); kinase activity, inhibitor, ADP-Glo): ~50 nM
CNC(=O)Oc1ccc2c(c1)[C@]1(C)CCN(C)[C@@H]1N2C — IC50 (Ace (Anopheles gambiae, UniProt Q869C3); enzyme activity, inhibitor, Ellman; 10 min, room temperature, with: acetylthiocholine): 8.27 nM
C[C@]12CC[C@@H]3c4ccc(OS(=O)(=O)F)cc4C[C@@H](CCCCCCCCC[S+]([O-])CCCC(F)(F)C(F)(F)F)[C@H]3[C@@H]1CC[C@@H]2O (some centres unmarked) — IC50 (Estrogen receptor (ESR1, Homo sapiens, UniProt P03372); binding, fluorescence polarisation; with: Fluormone ligand): 1.5 nM
CC(C)C[C@@H]1NC(=O)[C@H](CCC(=O)O)NC(=O)[C@@H]2CCCN2C(=O)[C@H](Cc2c[nH]cn2)NC(=O)[C@H](CC(N)=O)NC(=O)[C@H](C)NC(=O)[C@H](CO)NC(=O)[C@@H]2CSSC[C@H](NC(=O)CN)C(=O)N[C@@H](CSSC[C@@H](C(N)=O)NC1=O)C(=O)N[C@@H](CO)C(=O)N[C@@H](Cc1c[nH]cn1)C(=O)N1CCC[C@H]1C(=O)N[C@@H](C)C(=O)N2 — IC50 (Neuronal acetylcholine receptor; alpha3/beta2; ion current, antagonist, two-electrode voltage clamp; Xenopus laevis oocytes; with: 100 µM acetylcholine): 3.37 nM
c1ccc(Cn2nnc3c(Sc4nc5ncccc5o4)ncnc32)cc1 — IC50 (NOX1; enzyme activity, inhibitor, Amplex Red; cell-free membranes): 40000 ± 5000 nM
CC1(C)N=C(c2cnc3ccccc3c2)c2ccccc2C1(F)F — IC50 (Dihydroorotate dehydrogenase (quinone) (Pyricularia oryzae, UniProt G4NFI3, M402V); enzyme activity; 20 to 30 min, 30 °C): 2.8 nM
COc1ccc2nc(Sc3ncnc4c3nnn4Cc3ccccc3)oc2c1 — IC50 (NOX4; enzyme activity, inhibitor, Amplex Red; cell-free membranes): > 100000 nM
CC[C@H](C)[C@@H]1NC(=O)[C@H](CCC(=O)O)NC(=O)[C@@H]2CCCN2C(=O)[C@H](Cc2c[nH]cn2)NC(=O)[C@H](CC(N)=O)NC(=O)[C@H](C(C)C)NC(=O)[C@H](CO)NC(=O)[C@@H]2CSSC[C@H](NC(=O)CN)C(=O)N[C@@H](CSSC[C@@H](C(N)=O)NC1=O)C(=O)N[C@@H](CO)C(=O)N[C@@H](Cc1c[nH]cn1)C(=O)N1CCC[C@H]1C(=O)N[C@@H](C)C(=O)N2 — IC50 (Chrna3/Chrnb2/Chrna6 with beta3 subunit; ion current, antagonist, two-electrode voltage clamp; Xenopus laevis oocytes; with: 100 µM acetylcholine): 12.8 nM
CN(CC1CCN(Cc2ccccc2)CC1)C(=O)c1cn(Cc2ccccc2Cl)nn1 — IC50 (CHRNA7 (Homo sapiens, UniProt P36544); ion current, antagonist; Xenopus oocytes; with: acetylcholine 60 µM): 3700 nM
COP(=O)(OC)O/C(C)=C1\CCOC1=O — IC50 (ACHE (Homo sapiens, UniProt P22303); enzyme activity, inhibitor, Ellman; 30 min, 25 °C): 70000 nM
Brc1ccc2nc(Sc3ncnc4c3nnn4Cc3ccccc3)oc2c1 — IC50 (DUOX1 (Homo sapiens, UniProt Q9NRD9); enzyme activity, inhibitor, Amplex Red; cell-free membranes): > 15000 nM
CC(C)C[C@@H]1NC(=O)[C@H](CCC(=O)O)NC(=O)[C@@H]2CCCN2C(=O)[C@H](Cc2c[nH]cn2)NC(=O)[C@H](CC(N)=O)NC(=O)[C@H](C(C)C)NC(=O)[C@H](Cc2c[nH]cn2)NC(=O)[C@@H]2CSSC[C@H](NC(=O)CN)C(=O)N[C@@H](CSSC[C@@H](C(N)=O)NC1=O)C(=O)N[C@@H](CO)C(=O)N[C@@H](Cc1c[nH]cn1)C(=O)N1CCC[C@H]1C(=O)N[C@@H](C)C(=O)N2 — IC50 (Neuronal acetylcholine receptor; alpha3/beta2; ion current, antagonist, two-electrode voltage clamp; Xenopus laevis oocytes; with: 100 µM acetylcholine): 1.3 nM
c1ccc(Cn2nnc3c(Sc4nc5ccccc5[nH]4)ncnc32)cc1 — IC50 (NADPH oxidase 2 (CYBB, Homo sapiens, UniProt P04839); enzyme activity, inhibitor, MCLA chemiluminescence; cell-free membranes): > 100000 nM
CC(C)C[C@@H]1NC(=O)[C@H](CCC(=O)O)NC(=O)[C@@H]2CCCN2C(=O)[C@H](Cc2c[nH]cn2)NC(=O)[C@H](CC(=O)O)NC(=O)[C@H](C(C)C)NC(=O)[C@H](CO)NC(=O)[C@@H]2CSSC[C@H](NC(=O)CN)C(=O)N[C@@H](CSSC[C@@H](C(N)=O)NC1=O)C(=O)N[C@@H](CO)C(=O)N[C@@H](Cc1c[nH]cn1)C(=O)N1CCC[C@H]1C(=O)N[C@@H](C)C(=O)N2 — IC50 (Chrna3/Chrnb2/Chrna6 with beta3 subunit; ion current, antagonist, two-electrode voltage clamp; Xenopus laevis oocytes; with: 100 µM acetylcholine): 362 nM
C[C@@H]1NC(=O)[C@H](CCCNC(=N)N)NC(=O)[C@H](CCCNC(=N)N)NC(=O)[C@H](Cc2c[nH]cn2)NC(=O)[C@H](CO)NC(=O)[C@@H]2CSSC[C@H](NC(=O)CN)C(=O)N[C@@H](CSSC[C@@H](C(N)=O)NC(=O)[C@H](CO)NC(=O)[C@H](CCCNC(=N)N)NC1=O)C(=O)N[C@@H](CO)C(=O)N[C@@H](Cc1c[nH]cn1)C(=O)N1CCC[C@H]1C(=O)N[C@@H](C)C(=O)N2 — IC50 (Neuronal acetylcholine receptor; alpha9/alpha10 (Homo sapiens, UniProt Q9GZZ6+Q9UGM1); ion current, antagonist, two-electrode voltage clamp; Xenopus oocytes; holding -70 mV, with: 100 µM acetylcholine): 1290 nM
C[As](SC[C@H](NC(=O)CC[C@H](N)C(=O)O)C(=O)NCC(=O)O)SC[C@H](NC(=O)CC[C@H](N)C(=O)O)C(=O)NCC(=O)O — IC50 (NR3C1 (Homo sapiens, UniProt P04150); DNA binding, fluorescence polarization; with: FITC-labelled GRE DNA): 500 nM
